# Published values collected from several papers.
# Protein sequences, listed by entry. Tags and fused reporters are not part of them. Lines headed by an entry give the natural chain unless they say otherwise; changes in a name come on top. Residues count along the entry.
# UniProt P25090, whole entry: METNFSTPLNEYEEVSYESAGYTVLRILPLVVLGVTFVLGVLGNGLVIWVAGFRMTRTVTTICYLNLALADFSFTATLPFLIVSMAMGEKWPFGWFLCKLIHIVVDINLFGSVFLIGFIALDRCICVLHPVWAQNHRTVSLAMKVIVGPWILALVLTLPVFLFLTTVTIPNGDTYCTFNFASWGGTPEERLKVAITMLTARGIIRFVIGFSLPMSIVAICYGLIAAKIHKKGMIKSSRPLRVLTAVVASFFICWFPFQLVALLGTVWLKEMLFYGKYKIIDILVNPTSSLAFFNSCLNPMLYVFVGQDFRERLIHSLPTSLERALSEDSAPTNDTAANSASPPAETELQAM
# UniProt P07949, 29-1114 limits assumed: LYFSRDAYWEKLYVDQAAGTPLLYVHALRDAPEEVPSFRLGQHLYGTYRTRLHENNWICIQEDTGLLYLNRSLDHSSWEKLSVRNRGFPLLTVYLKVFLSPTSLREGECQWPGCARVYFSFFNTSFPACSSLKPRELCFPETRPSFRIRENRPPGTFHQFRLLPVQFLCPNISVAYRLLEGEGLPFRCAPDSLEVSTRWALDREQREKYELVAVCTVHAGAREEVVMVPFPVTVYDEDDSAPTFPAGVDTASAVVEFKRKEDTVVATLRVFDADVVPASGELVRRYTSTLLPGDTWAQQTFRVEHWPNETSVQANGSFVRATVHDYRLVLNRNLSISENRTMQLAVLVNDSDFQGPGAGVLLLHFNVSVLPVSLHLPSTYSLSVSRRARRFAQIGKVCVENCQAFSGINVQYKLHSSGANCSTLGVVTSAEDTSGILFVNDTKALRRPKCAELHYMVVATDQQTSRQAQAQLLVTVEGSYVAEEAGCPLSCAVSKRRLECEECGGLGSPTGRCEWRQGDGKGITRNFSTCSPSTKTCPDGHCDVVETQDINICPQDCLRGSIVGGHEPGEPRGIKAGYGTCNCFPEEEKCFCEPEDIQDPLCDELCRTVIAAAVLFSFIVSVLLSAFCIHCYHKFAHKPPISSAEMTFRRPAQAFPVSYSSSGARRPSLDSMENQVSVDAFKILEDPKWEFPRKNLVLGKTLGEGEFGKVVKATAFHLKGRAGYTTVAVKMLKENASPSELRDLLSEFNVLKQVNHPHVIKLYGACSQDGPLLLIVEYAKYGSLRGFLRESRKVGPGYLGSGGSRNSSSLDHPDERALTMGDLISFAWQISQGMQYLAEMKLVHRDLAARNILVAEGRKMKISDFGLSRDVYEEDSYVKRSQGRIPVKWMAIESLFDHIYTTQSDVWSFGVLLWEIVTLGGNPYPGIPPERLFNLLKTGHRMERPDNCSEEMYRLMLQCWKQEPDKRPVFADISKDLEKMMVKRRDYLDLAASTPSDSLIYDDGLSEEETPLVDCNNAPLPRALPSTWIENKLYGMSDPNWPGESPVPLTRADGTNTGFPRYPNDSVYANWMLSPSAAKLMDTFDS
# UniProt P07949, whole entry, looked up, stated change not applied: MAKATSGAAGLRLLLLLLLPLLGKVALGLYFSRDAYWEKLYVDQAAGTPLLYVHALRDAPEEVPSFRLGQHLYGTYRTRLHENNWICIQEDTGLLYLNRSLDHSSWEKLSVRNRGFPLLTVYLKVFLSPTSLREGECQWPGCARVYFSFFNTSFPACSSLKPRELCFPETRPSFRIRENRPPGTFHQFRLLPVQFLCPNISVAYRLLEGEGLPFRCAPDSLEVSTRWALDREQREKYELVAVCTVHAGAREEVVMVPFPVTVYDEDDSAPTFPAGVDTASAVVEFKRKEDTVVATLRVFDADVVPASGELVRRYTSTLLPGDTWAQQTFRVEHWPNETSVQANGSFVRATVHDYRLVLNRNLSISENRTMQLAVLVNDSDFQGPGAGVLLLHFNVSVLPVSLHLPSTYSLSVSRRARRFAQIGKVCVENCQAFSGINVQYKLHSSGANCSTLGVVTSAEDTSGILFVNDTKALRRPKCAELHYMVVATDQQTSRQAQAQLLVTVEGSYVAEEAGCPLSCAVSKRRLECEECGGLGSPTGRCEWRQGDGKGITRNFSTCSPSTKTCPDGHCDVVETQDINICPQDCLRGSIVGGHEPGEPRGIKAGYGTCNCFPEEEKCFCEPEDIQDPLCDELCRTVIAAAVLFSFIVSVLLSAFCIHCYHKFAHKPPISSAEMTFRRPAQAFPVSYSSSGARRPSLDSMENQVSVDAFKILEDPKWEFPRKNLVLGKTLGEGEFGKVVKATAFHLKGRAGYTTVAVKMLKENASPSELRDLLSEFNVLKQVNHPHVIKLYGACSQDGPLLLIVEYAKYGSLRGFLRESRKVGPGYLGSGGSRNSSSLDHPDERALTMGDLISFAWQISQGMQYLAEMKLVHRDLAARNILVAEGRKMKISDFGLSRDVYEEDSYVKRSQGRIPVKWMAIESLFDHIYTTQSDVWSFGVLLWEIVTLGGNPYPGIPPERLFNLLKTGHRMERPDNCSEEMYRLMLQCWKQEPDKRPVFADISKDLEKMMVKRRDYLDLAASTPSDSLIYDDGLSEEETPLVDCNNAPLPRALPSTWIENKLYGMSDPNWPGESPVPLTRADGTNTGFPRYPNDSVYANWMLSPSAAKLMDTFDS
# UniProt P33176, whole entry, looked up: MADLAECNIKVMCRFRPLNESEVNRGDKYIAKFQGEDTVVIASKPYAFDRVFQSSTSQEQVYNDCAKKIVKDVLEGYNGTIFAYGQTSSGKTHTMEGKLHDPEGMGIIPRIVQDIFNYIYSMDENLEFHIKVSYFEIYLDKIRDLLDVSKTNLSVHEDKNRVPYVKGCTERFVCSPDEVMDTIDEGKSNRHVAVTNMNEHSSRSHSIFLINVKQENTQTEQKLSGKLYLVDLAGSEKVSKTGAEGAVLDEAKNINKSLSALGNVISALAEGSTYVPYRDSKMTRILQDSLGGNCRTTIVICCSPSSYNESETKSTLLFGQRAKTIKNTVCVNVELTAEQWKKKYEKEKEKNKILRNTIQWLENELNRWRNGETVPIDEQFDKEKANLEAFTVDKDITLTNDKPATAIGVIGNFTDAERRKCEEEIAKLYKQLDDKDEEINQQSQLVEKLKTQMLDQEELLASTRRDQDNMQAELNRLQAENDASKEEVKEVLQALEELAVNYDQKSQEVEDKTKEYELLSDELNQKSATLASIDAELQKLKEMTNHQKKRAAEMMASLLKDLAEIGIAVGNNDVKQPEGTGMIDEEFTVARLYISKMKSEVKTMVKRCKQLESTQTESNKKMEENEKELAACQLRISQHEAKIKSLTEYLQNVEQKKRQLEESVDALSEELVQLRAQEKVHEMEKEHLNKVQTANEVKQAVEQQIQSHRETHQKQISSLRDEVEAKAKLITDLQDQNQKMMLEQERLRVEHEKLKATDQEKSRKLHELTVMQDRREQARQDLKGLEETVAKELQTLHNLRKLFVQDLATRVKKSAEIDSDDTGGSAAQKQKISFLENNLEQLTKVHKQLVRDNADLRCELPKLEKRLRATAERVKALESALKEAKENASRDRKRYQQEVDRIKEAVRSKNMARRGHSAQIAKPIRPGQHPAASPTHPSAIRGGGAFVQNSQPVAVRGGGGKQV
# UniProt P05067, 672-713 limits assumed: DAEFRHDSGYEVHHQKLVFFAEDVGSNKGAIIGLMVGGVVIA
# UniProt P35968, 20-1356 limits assumed: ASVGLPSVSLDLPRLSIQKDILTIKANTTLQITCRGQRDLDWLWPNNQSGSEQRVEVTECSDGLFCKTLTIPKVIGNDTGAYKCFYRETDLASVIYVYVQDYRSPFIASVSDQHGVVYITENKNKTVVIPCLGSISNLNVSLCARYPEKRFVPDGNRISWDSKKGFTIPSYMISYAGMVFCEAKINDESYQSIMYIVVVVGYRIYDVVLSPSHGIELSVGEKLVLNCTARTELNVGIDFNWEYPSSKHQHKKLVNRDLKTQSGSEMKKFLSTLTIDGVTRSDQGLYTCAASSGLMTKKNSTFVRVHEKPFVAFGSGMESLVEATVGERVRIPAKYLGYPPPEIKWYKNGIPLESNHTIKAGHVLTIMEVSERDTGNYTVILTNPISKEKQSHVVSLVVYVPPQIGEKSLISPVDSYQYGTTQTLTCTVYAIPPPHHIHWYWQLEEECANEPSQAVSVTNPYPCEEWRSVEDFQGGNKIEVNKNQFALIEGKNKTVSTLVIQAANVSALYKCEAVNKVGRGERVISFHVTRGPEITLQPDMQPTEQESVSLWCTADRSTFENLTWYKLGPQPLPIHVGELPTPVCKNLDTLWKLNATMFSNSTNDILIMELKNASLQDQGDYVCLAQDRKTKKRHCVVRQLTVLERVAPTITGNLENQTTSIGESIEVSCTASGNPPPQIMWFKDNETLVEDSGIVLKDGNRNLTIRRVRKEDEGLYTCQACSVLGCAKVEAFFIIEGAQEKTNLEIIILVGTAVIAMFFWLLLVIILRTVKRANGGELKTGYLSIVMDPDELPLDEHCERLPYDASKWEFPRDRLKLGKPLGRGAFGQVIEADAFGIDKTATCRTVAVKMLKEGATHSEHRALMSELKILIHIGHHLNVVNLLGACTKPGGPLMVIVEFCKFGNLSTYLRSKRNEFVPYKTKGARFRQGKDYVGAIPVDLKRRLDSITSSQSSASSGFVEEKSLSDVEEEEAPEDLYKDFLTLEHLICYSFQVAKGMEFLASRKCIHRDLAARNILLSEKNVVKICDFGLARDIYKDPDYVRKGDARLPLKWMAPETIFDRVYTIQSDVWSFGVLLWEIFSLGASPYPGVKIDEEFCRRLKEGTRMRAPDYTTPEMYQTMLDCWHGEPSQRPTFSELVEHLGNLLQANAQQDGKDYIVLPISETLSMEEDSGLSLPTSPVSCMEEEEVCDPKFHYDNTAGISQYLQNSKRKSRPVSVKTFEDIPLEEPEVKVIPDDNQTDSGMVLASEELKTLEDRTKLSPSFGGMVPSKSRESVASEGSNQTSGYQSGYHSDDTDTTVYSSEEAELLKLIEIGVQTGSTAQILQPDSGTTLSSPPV
# UniProt Q8TF76, whole entry: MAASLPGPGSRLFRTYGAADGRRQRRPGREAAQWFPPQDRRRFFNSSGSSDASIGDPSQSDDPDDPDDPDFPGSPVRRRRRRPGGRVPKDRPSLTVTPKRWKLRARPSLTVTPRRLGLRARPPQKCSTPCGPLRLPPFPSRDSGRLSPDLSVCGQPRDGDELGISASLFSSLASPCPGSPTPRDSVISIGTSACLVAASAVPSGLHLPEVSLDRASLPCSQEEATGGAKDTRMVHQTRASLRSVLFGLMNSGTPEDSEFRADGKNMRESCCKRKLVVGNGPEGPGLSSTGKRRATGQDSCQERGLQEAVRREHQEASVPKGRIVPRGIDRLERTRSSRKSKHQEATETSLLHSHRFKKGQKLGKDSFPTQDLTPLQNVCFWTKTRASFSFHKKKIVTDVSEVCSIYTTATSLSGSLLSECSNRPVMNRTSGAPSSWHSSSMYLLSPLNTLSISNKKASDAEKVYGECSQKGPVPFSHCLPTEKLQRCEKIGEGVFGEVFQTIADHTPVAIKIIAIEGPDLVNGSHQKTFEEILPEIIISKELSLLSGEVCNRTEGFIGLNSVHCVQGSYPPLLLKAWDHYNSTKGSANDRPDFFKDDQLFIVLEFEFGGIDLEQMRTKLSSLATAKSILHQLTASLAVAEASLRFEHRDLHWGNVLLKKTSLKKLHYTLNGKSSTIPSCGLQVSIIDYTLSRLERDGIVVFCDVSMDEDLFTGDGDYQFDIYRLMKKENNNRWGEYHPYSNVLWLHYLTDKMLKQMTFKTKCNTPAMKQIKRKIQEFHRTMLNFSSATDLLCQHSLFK
# UniProt O00748, 27-559 limits assumed: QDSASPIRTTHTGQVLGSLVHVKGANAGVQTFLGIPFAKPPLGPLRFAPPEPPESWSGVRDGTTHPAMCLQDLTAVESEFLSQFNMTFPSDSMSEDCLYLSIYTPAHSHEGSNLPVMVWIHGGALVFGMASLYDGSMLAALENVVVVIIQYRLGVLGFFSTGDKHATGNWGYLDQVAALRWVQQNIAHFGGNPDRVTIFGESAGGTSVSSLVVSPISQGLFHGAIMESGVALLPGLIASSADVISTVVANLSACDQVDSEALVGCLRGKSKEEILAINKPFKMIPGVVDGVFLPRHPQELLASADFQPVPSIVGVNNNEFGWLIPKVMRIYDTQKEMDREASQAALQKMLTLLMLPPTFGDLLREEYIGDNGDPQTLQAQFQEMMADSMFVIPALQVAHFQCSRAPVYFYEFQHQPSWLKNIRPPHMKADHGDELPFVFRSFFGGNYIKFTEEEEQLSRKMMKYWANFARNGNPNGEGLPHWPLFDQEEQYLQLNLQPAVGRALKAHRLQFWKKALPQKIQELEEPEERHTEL
# UniProt P19784, whole entry: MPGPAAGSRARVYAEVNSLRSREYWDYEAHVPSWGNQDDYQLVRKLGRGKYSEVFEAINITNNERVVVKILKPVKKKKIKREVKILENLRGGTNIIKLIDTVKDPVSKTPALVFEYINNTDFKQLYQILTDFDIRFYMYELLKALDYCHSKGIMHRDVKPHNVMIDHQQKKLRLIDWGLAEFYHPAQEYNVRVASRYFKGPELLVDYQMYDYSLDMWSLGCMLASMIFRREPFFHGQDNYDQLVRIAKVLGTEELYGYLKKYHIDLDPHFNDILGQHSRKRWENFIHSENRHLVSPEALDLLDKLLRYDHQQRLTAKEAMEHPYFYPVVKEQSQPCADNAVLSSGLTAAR
# “And” joins repeats or separate records; there may be more than shown. ± gives the spread as reported.
SMILES,target,test,test system,conditions,IC50
COc1ccc(NC(=O)N[C@H](Cc2ccc(C#N)cc2)C(=O)NCC2(c3cccc(O)c3)CC2)cc1,"FPR2 (Homo sapiens, UniProt P25090)",calcium mobilization,FPR2-transfected HL-60,"desensitization pretreatment, with: WKYMVM 5 nM",2.1 ± 0.4 µM
CN1CCN(Cc2ccc(NC(=O)c3cncc(C#Cc4cncc5ncccc45)c3)cc2C(F)(F)F)CC1,"Kinesin-1 heavy chain/ Tyrosine-protein kinase receptor RET (RET/KIF5B, Homo sapiens, UniProt P07949+P33176, G810V)","cell viability, inhibitor, CellTiter-Glo",Ba/F3 KIF5B-RET G810V,,0.00479 ± 0.00026 µM
N#Cc1ccc2[nH]cc(/C=C/c3ccc(CO)cc3)c2c1,"Amyloid-beta precursor protein, amyloid-beta peptide (APP, Homo sapiens, UniProt P05067)","Aβ42 oligomerisation, ELISA",,,> 20 µM
COc1ccc(NC(=O)CSc2nc(-c3ccc(F)cc3)cc(C(F)(F)F)c2C#N)cc1,"TAAR1 (Homo sapiens, UniProt Q96RJ0)",,,,> 10 µM
O=C(Nc1ccc(-c2nc3ccccc3s2)cc1)c1ccccc1[N+](=O)[O-],"Tyrosine-protein kinase SYK, with FCER1G (SYK, Homo sapiens, UniProt P43405)","protein binding, inhibitor, TR-FRET",,,> 100 µM
CC(C)(N)c1nc2cc(-c3ccnc(F)c3)sc2c(=O)[nH]1,"CDC7 (Homo sapiens, UniProt O00311)","enzyme activity, inhibitor",,,1.32 ± 0.0529 µM
COc1cc2nccc(Oc3ccc(NC(=S)NC4CCC4)c(Cl)c3)c2cc1C(N)=O,"KDR (Homo sapiens, UniProt P35968)",,,,0.0205 µM
Cc1ccc(CCN2CCN(c3cc(N4CCCC4)nc(N4CCCC4)n3)CC2)cc1,"Caspase-1 (CASP1, Homo sapiens, UniProt P29466)","enzyme activity, inhibitor",,"30 min preincubation, with: Ac-WEHD-AMC 10 µM",0.087 ± 0.009 µM
O=C(NO)c1c(F)c(F)cc(F)c1F,"HDAC6 (Homo sapiens, UniProt Q9UBN7)","enzyme activity, inhibitor, electrophoretic mobility shift",,with: FAM-RHKK(Ac)-NH2 1 µM,6.77 µM
CC(=O)N(CC#Cc1cccc(C(N)=O)c1)C[C@H]1C[C@@H](n2ccc3c(Cl)ncnc32)[C@H](O)[C@@H]1O,"AHCY (Homo sapiens, UniProt P23526)","enzyme activity, inhibitor, fluorescence",,,> 100 µM
Cc1n[nH]c(C)c1-c1ccc(C2(c3ccc(Cl)cc3)CCNCC2)cc1,"LATS2 (Homo sapiens, UniProt Q9NRM7)","kinase activity, inhibitor, radiometric HotSpot",,with: ATP 10 µM,0.073 µM
COc1cc2c(SCCCN)c3ccccc3nc2cc1Cl,"HASPIN (Homo sapiens, UniProt Q8TF76)","inhibitor, TR-FRET",,with: histone H3 peptide,0.079 µM
COC(=O)CCCC(C(=O)/C=C/c1ccc(O)c(OC(F)(F)F)c1)C(=O)/C=C/c1ccc(O)c(OC(F)(F)F)c1,"Amyloid-beta precursor protein, Aβ aggregates (APP, Homo sapiens, UniProt P05067)","binding, thioflavin T competition",,,0.35 µM
O=C(CCCCCn1c(=S)[nH]c2ccccc2c1=O)N1CCN(c2cccc(Cl)c2)CC1,"Estrogen receptor (ESR1, Homo sapiens, UniProt P03372)","reporter gene, coactivator binding inhibitor, luciferase reporter",HEC-1 cells transfected with ERα,"partial inhibition, with: estradiol 1 nM",5.2 µM
CCCCCN(C)C(=O)Oc1ccccc1C=C1Cc2cc(OC)c(OC)cc2C1=O,"Cocaine esterase (CES2, Homo sapiens, UniProt O00748)",intracellular enzyme activity,HepG2,"1 h, with: fluorogenic substrate 10 µM",0.00685 µM
CN1CC[C@H](c2c(O)cc(O)c3c(=O)cc(-c4ccccc4F)oc23)[C@H](O)C1,"PRKCA (Homo sapiens, UniProt P17252)",,,ATP at Km,> 10 µM
CC(C)[C@H](NC(=O)c1cc(C(=O)O)cc([C@H]2CCN[C@@H]2C(=O)O)c1)C(=O)O,AMPA receptor (rat),"binding, radioligand binding",rat cortical synaptosomes,with: [3H]AMPA,27 µM
COCCCn1nc(-c2ccc(CC(=O)Nc3cc(C(C)(C)C)on3)cc2)c2c(N)ncnc21,"RET (Homo sapiens, UniProt P07949)",inhibitor,,,0.00032 µM and 0.000326 µM
CC(=O)Nc1cc(Nc2cc(NC3CC3)n3ncc(C#N)c3n2)ccc1N1CCOCC1,"CSNK2A2 (Homo sapiens, UniProt P19784)","target engagement, NanoBRET",HEK293,,0.015 µM

# Repeated from above:
SMILES,target,test,test system,conditions,IC50
COc1cc2c(SCCCN)c3ccccc3nc2cc1Cl,"HASPIN (Homo sapiens, UniProt Q8TF76)","inhibitor, TR-FRET",,with: histone H3 peptide,0.079 µM
COC(=O)CCCC(C(=O)/C=C/c1ccc(O)c(OC(F)(F)F)c1)C(=O)/C=C/c1ccc(O)c(OC(F)(F)F)c1,"Amyloid-beta precursor protein, Aβ aggregates (APP, Homo sapiens, UniProt P05067)","binding, thioflavin T competition",,,0.35 µM
